Results collected from several papers.
Each numbered part is a random draw from the data of one study; scales do not carry over between parts.
Sequence of UniProt O95382 (whole entry, looked up): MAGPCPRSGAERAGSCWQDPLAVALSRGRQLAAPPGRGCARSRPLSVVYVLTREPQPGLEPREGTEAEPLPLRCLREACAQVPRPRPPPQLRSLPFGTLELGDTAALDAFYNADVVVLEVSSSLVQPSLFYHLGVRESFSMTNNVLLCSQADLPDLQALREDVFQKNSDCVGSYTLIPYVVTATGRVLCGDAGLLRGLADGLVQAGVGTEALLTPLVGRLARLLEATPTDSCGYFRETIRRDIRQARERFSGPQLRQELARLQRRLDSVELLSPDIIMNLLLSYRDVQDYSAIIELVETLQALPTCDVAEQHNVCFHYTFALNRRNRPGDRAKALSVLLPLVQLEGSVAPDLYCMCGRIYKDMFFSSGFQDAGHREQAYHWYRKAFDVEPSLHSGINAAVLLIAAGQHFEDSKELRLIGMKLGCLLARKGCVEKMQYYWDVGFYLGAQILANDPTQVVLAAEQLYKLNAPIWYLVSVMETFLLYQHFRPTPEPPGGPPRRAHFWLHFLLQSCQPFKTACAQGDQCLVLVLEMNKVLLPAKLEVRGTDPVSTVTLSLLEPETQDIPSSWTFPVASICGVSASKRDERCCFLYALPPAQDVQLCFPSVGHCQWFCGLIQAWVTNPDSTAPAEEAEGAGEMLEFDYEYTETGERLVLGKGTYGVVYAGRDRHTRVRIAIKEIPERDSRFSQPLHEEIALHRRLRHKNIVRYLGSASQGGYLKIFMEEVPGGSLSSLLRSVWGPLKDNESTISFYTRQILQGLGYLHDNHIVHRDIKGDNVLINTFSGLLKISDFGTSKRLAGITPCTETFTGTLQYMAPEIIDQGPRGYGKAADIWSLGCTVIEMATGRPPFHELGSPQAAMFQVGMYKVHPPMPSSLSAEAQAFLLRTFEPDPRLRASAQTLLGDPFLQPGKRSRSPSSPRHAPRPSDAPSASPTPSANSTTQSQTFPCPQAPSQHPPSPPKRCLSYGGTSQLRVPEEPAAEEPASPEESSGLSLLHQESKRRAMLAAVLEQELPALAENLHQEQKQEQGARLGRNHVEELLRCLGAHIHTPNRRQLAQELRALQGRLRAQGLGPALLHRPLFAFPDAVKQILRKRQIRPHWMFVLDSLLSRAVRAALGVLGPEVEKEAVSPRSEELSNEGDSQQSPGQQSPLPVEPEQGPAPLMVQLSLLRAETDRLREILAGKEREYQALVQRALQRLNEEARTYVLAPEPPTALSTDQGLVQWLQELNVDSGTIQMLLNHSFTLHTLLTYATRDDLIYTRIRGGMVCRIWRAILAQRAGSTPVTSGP
Sequence of UniProt Q14004 (whole entry, looked up): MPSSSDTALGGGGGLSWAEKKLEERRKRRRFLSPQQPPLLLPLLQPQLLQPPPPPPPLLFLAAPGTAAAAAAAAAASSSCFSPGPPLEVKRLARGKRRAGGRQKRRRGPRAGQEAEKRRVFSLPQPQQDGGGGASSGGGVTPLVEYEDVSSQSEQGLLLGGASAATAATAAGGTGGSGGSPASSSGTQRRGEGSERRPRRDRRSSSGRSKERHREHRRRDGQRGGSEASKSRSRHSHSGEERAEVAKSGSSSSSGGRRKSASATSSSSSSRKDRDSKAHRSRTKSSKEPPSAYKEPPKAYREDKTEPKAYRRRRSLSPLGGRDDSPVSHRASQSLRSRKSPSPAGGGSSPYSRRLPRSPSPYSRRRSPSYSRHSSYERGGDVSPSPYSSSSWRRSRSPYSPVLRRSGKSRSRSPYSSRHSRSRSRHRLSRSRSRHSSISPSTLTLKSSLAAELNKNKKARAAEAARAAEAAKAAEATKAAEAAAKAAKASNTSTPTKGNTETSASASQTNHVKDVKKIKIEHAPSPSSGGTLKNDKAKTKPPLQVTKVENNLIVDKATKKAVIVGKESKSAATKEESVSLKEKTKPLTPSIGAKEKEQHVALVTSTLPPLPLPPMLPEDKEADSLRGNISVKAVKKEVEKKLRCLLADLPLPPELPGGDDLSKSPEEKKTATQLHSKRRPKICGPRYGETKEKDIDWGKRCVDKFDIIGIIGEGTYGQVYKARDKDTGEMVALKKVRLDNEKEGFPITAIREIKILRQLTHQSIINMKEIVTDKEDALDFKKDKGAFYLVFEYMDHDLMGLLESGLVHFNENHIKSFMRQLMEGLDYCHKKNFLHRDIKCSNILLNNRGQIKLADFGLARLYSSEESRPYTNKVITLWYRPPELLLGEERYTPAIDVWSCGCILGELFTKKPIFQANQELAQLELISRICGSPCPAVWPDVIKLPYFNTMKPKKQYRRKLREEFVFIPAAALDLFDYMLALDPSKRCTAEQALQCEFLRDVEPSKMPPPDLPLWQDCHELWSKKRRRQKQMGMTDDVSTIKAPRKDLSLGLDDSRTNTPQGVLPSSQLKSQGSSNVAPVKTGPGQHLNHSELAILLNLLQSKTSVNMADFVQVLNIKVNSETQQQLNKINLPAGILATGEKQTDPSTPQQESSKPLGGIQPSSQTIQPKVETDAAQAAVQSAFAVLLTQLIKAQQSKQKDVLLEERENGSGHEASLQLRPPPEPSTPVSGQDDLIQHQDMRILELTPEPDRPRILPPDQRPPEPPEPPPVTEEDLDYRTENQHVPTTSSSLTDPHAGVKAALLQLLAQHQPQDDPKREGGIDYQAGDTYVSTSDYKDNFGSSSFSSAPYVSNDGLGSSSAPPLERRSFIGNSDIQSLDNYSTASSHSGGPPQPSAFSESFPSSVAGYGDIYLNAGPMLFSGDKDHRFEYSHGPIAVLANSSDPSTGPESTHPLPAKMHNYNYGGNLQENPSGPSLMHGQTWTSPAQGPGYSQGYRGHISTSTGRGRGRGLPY

Set 1
Target: Centromere-binding protein 1, full length, N-terminal tag (CBF1, Saccharomyces cerevisiae, UniProt P17106, residues 1-351)
Sequence of UniProt P17106 (whole entry, looked up): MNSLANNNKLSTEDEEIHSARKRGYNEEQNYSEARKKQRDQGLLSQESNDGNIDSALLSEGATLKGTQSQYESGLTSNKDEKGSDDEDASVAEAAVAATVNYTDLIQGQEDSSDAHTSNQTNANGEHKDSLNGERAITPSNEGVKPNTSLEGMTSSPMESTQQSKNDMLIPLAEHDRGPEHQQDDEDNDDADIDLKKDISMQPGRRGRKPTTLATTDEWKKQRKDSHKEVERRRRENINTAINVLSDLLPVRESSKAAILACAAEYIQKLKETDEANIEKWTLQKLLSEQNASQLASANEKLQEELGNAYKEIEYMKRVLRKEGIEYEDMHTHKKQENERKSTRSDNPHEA
Technique: protein-binding microarray
Molecule type: double-stranded DNA, one strand shown
Sample: in vitro
Concentration: 0.8 µM
Setting: whole 60-bp probe, no competitor
Direction: higher = stronger binding
| Strand | fluorescence intensity |
| --- | --- |
| CTAACTACACAGTGTTCCGTGAGACCGTTACAGTTCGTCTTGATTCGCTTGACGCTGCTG | 541 a.u. |
| GAATCTTTTATTTATCACCCGCTGAAGCACGCATAGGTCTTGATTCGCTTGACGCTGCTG | 563 a.u. |
| CTAGCGTTTTTCTGGGACGTGCTGACAAACGAGTTCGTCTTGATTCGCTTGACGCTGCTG | 583 a.u. |
| CTATAGACTTCCTTATGCCTGATGTCCTTCCACTTCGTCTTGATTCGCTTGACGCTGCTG | 534 a.u. |
| GAACTACATCAAAATCACCTGTGCAATATATATTAGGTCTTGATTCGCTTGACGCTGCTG | 851 a.u. |
| CTATTTTCACTTTGTCTGGTGATCTTGGGGAATTTCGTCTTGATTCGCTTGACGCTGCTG | 677 a.u. |
| GAATGGTTATACGCGCACATGTATATAAGGAGATAGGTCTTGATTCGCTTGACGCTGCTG | 876 a.u. |
| CTATGTATATGAGATGTCATGAGCATGAATTATTTCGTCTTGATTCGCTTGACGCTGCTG | 595 a.u. |

Set 2
SMILES: CC1=C(C#N)[C@@H](c2ccc3[nH]nc(C)c3c2)C(C#N)=C(c2ccc(Cl)cc2)N1
Technique: competition with immobilised ligand
Concentration: 1 µM
| target | assay | remaining binding |
| --- | --- | --- |
| EGFR (Homo sapiens, UniProt P00533, del746-750) | cell-free assay | 75.1% |
| CDKL1 (Homo sapiens, UniProt Q00532) | binding | 77.1% |
| DYRK1B (Homo sapiens, UniProt Q9Y463) | cell-free assay | 50.1% |
| MARK4 (Homo sapiens, UniProt Q96L34) | cell-free assay | 100% |
| Ribosomal protein S6 kinase alpha-2, N-terminal kinase domain (RPS6KA2, Homo sapiens, UniProt Q15349) | cell-free assay | 85.4% |
| CDK13 (Homo sapiens, UniProt Q14004) | cell-free assay | 86.6% |
| MAP3K1 (Homo sapiens, UniProt Q13233) | cell-free assay | 100% |
| STK32C (Homo sapiens, UniProt Q86UX6) | cell-free assay | 91.2% |
| BMPR1B (Homo sapiens, UniProt O00238) | cell-free assay | 100% |
| BMP2K (Homo sapiens, UniProt Q9NSY1) | cell-free assay | 100% |
| HASPIN (Homo sapiens, UniProt Q8TF76) | cell-free assay | 100% |
| EGFR (Homo sapiens, UniProt P00533, T790M) | cell-free assay | 100% |
| FLT3 (Homo sapiens, UniProt P36888, D835V/ITD) | cell-free assay | 93.9% |
| MYLK2 (Homo sapiens, UniProt Q9H1R3) | cell-free assay | 91.4% |
| MAP3K6 (Homo sapiens, UniProt O95382) | cell-free assay | 83.2% |
| MAP3K19 (Homo sapiens, UniProt Q56UN5) | cell-free assay | 100% |

Set 3
Target: Ephrin type-A receptor 1 (EPHA1, Homo sapiens, UniProt P21709)
Sequence of UniProt P21709 (whole entry, looked up): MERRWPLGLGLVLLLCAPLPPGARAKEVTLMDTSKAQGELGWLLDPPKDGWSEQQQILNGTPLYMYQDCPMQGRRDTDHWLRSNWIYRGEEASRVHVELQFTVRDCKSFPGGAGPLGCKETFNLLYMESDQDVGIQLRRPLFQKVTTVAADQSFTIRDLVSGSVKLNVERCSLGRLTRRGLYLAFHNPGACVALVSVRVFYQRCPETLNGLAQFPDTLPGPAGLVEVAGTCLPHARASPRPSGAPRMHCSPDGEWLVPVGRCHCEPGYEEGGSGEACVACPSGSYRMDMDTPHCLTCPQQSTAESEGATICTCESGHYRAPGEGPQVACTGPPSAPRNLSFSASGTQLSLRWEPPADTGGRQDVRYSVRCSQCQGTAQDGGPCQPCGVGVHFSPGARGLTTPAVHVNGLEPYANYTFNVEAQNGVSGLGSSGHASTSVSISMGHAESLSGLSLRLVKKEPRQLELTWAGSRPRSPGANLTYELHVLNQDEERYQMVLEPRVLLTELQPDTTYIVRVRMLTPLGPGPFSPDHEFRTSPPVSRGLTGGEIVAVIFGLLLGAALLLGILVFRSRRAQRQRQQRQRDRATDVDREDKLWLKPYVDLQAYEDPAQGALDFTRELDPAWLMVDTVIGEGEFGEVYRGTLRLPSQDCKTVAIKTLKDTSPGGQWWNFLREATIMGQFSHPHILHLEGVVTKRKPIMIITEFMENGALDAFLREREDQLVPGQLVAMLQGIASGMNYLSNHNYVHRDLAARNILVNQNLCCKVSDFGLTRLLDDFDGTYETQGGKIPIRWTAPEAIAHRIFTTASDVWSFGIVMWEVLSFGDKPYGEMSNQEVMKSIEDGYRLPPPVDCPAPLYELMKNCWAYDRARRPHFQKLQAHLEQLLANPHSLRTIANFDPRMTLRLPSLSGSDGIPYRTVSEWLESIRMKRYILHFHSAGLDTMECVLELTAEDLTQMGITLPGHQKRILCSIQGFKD
Effect on: enzyme activity
Mode: inhibitor
Concentration: 0.5 µM
Baseline: control
| SMILES | remaining activity |
| --- | --- |
| NCCNc1ncc(C(N)=O)c(Nc2cccc(C(F)(F)F)c2)n1 | 100% |
| COc1ccc(OC)c2c(=S)c3ccccc3[nH]c12 | 89% |
| OCC(O)CCON=C1C(c2c(O)[nH]c3ccccc23)=Nc2ccccc21 (stereo not drawn) | 82.2% |
| COc1ccc(CNC(=O)Nc2ncc([N+](=O)[O-])s2)cc1 | 107% |
| Cn1sc(=O)n(Cc2ccccc2)c1=O | 106% |
| CCOC(=O)c1c(C)[nH]c(/C=C2\C(=O)Nc3ccccc32)c1C | 90.8% |
| Cc1ccc(Nc2nccc(N(C)c3ccc4c(C)n(C)nc4c3)n2)cc1S(N)(=O)=O | 85% |
| N#CC(C#N)=C(N)/C(C#N)=C/c1ccc(O)cc1 | 103% |
| Oc1ccc(-c2nc(-c3ccncc3)c(-c3ccc(F)cc3)[nH]2)cc1 | 94.4% |
| O=S(=O)(c1cccc2cnccc12)N1CCCNCC1 | 79.9% |
| Cc1cccc(-c2[nH]c(C(C)(C)C)nc2-c2ccc3c(c2)OCO3)n1 | 124% |
| O=C1NC(=O)C(c2cn(CCCO)c3ncccc23)=C1c1cnccn1 | 73.9% |
| O=c1c2ccccc2[nH]c(=S)n1CCN1CCC(=C(c2ccc(F)cc2)c2ccc(F)cc2)CC1 | 107% |
| Cn1c2ccccc2c2c3c(c4c5ccccc5n(CCC#N)c4c21)CNC3=O | 81.6% |
| CO[C@H]1C[C@@H]2CC[C@@H](C)[C@@](O)(O2)C(=O)C(=O)N2CCCC[C@H]2C(=O)O[C@H]([C@H](C)C[C@@H]2CC[C@@H](O)[C@H](OC)C2)CC(=O)[C@H](C)/C=C(\C)[C@@H](O)[C@@H](OC)C(=O)[C@H](C)C[C@H](C)/C=C/C=C/C=C/1C | 99.5% |
| COc1cc2ncnc(Nc3ccc(Oc4ccccc4)cc3)c2cc1OC | 95.6% |

Set 4
Target: Transcription factor Sp1 (SP1, Homo sapiens, UniProt P08047, residues 1-785, full length assumed)
Sequence of UniProt P08047 (whole entry, looked up): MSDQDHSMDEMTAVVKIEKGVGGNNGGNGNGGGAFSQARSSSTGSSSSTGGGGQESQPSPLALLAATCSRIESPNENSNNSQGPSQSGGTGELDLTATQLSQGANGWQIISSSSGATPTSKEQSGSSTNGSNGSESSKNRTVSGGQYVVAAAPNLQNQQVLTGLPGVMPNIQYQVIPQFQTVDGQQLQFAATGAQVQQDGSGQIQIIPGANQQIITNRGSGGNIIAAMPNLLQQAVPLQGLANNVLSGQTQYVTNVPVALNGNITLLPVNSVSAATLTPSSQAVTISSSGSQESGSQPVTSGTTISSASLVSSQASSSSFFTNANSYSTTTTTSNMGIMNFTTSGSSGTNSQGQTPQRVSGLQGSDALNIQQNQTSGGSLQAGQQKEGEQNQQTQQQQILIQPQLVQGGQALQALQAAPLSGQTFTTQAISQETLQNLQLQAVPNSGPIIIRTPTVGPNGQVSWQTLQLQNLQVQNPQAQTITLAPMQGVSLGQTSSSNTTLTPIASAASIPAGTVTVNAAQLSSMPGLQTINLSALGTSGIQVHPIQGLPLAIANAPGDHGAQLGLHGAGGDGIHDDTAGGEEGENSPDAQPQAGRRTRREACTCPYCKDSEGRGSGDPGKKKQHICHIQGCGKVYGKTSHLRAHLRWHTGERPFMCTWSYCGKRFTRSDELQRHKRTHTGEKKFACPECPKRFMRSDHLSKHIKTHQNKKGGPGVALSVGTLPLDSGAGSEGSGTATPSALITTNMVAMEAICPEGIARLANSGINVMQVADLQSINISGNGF
Technique: protein-binding microarray
Molecule type: double-stranded DNA, one strand shown
Sample: in vitro
Concentration: not given
Setting: k-mer, scored over probes, only values ≥0.25
Direction: higher = stronger binding
| Strand | E-score |
| --- | --- |
| CGCCCATA | 0.34 |
| CCCGTCCC | 0.286 |
| AACAATAT | 0.302 |
| AATAGGGG | 0.346 |
| ACAATGTA | 0.288 |
| AGCCCCTC | 0.32 |
| CACCCCAG | 0.259 |
| CCTTGCTA | 0.259 |

Repeated from above (set 4):
| Strand | E-score |
| --- | --- |
| AATAGGGG | 0.346 |
| ACAATGTA | 0.288 |
| AGCCCCTC | 0.32 |
